{"data": "Assay results from different studies", "rep nsp14": "Replicase polyprotein 1ab, nsp14 (rep, Severe acute respiratory syndrome coronavirus 2, UniProt P0DTD1)", "note": "Compare with care: the assays were run in different laboratories. ± marks the error that the study gave.", "sequence of UniProt P11388 (whole entry, looked up)": "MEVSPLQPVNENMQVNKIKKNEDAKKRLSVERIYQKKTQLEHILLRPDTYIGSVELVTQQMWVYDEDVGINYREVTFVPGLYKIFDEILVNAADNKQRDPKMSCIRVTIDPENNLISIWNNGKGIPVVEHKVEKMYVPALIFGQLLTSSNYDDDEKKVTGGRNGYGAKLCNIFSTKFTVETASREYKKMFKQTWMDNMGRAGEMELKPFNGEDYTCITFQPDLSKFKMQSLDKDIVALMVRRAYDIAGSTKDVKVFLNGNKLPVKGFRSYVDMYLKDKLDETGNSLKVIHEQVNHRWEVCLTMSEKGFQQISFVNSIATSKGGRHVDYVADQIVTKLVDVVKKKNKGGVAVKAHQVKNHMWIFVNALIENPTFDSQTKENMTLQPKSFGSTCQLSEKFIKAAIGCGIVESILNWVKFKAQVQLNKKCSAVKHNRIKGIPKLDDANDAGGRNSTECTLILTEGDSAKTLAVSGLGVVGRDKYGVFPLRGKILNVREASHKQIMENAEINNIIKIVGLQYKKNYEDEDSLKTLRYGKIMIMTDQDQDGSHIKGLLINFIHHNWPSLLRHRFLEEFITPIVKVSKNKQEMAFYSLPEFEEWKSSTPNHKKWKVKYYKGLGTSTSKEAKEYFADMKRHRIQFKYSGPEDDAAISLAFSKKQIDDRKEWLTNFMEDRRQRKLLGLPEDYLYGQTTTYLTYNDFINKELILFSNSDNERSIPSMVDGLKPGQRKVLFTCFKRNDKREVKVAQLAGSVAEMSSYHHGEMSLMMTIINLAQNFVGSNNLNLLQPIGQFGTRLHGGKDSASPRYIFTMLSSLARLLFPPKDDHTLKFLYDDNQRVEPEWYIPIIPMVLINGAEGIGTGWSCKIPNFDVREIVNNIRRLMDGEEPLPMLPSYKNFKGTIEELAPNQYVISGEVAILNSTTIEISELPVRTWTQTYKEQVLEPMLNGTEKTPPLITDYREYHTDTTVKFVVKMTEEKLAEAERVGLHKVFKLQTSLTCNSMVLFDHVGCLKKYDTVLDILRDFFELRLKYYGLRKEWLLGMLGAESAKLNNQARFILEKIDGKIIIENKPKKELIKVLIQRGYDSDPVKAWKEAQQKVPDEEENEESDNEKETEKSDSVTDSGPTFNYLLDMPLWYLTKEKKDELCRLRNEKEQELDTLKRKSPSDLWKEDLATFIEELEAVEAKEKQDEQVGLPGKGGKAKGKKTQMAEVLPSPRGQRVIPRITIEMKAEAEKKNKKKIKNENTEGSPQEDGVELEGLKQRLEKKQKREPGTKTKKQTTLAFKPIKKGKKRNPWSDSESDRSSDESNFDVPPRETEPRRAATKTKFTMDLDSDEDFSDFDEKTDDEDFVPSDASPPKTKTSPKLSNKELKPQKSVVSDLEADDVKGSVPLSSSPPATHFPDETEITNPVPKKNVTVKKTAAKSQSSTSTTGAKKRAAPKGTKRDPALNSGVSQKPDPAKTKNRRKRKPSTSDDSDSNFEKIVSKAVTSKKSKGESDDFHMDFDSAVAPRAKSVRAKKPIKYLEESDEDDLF"}
{"SMILES": "CC1COc2ccccc2N1C(=O)C(Cl)Cl (centres unmarked)", "tested on": "carboxylesterase", "system": "female rhesus monkey liver cytosol", "setting": "5 µM, pH 7.4, without GSH", "measurement": "scaled intrinsic clearance", "result": "42 mL/min/g liver"}
{"SMILES": "Fc1ccccc1Cc1nc(-c2nc(C(F)(F)F)n[nH]2)cn2ccnc12", "system": "healthy volunteers", "setting": "20 mg, single ascending dose", "scale": "relative to: placebo", "measurement": "choice reaction time", "result": "-12.3 ms"}
{"SMILES": "O=C(O)c1cccnc1Nc1cccc(C(F)(F)F)c1", "assay": "vericiguat glucuronidation, inhibitor, measured: metabolite M-1 formation", "system": "human kidney microsomes", "setting": "5.0 µM", "scale": "relative to: no inhibitor", "measurement": "remaining activity", "result": "15.1%"}
{"SMILES": "N#CCC1CCN(c2nc(Nc3ccc(N4CCC(O)CC4)cc3)c3c(=O)[nH]ncc3n2)CC1", "assay": "vs placebo, Olink multiplex", "system": "human, serum", "setting": "80 mg, day 15, unit not given", "scale": "relative to: placebo", "measurement": "osteopontin level difference", "result": -1.36}
{"SMILES": "COc1cc([C@@H]2c3cc4c(cc3[C@@H](O[C@@H]3O[C@@H]5CO[C@@H](C)O[C@H]5[C@H](O)[C@H]3O)[C@H]3COC(=O)[C@H]23)OCO4)cc(OC)c1O", "tested on": "DNA topoisomerase 2-alpha (TOP2A, Homo sapiens, UniProt P11388)", "assay": "DNA cleavage", "setting": "125 µM", "measurement": "mean linear DNA", "result": "24.3%"}
{"SMILES": "COC(=O)Nc1c(N)nc(-c2nn(Cc3ccccc3F)c3ncc(F)cc23)nc1N", "system": "healthy white men", "setting": "dose not given, day 15, 360 h, LS mean difference, with: sildenafil 100 mg", "scale": "relative to: placebo", "measurement": "seated SBP maximum decrease", "result": "-5.36 mmHg"}
{"SMILES": "Clc1nc(NCc2ccco2)c2[nH]cnc2n1", "tested on": "iPSC-derived cardiomyocytes, Fabry disease", "assay": "RNA-seq", "setting": "30 µM, 72 h", "measurement": "GLA poison exon skipping ΔPSI", "result": "26.8%"}
{"SMILES": "CO/N=C(\\C(=O)N[C@@H]1C(=O)N2C(C(=O)O)=C(COC(C)=O)CS[C@H]12)c1csc(N)n1", "tested on": "Salmonella enterica serovar Enteritidis", "assay": "broth microdilution", "system": "clinical isolate RKI-No 205/14", "measurement": "MIC", "result": "> 16 µg/mL"}
{"SMILES": "C[C@H]1O[C@@H](O[C@H]2[C@@H](O)C[C@H](O[C@H]3[C@@H](O)C[C@H](O[C@H]4CC[C@@]5(C)[C@H](CC[C@@H]6[C@@H]5CC[C@]5(C)[C@@H](C7=CC(=O)OC7)CC[C@]65O)C4)O[C@@H]3C)O[C@@H]2C)C[C@H](O)[C@@H]1O", "tested on": "human iPSC cardiomyocytes", "assay": "plate-normalised", "setting": "concentration not given, hit retest", "scale": "relative to: vehicle controls, SDs below control", "measurement": "MyBP-C level change", "result": "12.8 SD"}
{"SMILES": "COc1ccccc1CNC(=O)c1cc(S(=O)(=O)N2CCC(C)CC2)c(C)[nH]1", "tested on": "rep nsp14", "assay": "inhibitor", "measurement": "IC50", "result": "> 6.25 µM"}
{"SMILES": "OC[C@H]1O[C@@H](O[C@@H]2[C@@H](O)[C@H](O[C@@H]3[C@@H](O)[C@H](O[C@H]4[C@H](O)[C@@H](CO)OC(O)[C@@H]4O)O[C@H](CO)[C@H]3O)O[C@H](CO)[C@H]2O)[C@H](O)[C@@H](O)[C@@H]1O (some centres unmarked)", "tested on": "Bacteroides thetaiotaomicron", "assay": "binding, ITC", "setting": "pH 7.0, 25 °C, distal domain", "measurement": "ΔG", "result": "-25 kcal/mol"}
{"SMILES": "COC(=O)N(C)c1c(N)nc(-c2nn(Cc3ccccc3F)c3ncccc23)nc1N", "tested on": "THP-1", "assay": "pyroptotic LDH release", "setting": "2 µM, 40 min, with: LPS then nigericin", "measurement": "inhibition", "result": "25.7%"}
{"SMILES": "Cc1c(S(=O)(=O)N2CCn3cccc3C2)cc(C(=O)NCc2cccnc2N2CCCC2)n1C", "tested on": "rep nsp14", "assay": "inhibitor", "measurement": "IC50", "result": "0.0012 µM"}
{"SMILES": "OC[C@H]1O[C@@H](O[C@@H]2[C@@H](O)[C@H](O[C@@H]3[C@@H](O)[C@H](O[C@@H]4[C@@H](O)[C@H](O[C@@H]5[C@@H](O)[C@H](O[C@H]6[C@H](O)[C@@H](CO)OC(O)[C@@H]6O)O[C@H](CO)[C@H]5O)O[C@H](CO)[C@H]4O)O[C@H](CO)[C@H]3O)O[C@H](CO)[C@H]2O)[C@H](O)[C@@H](O)[C@@H]1O (some centres unmarked)", "tested on": "Bacteroides thetaiotaomicron", "assay": "binding, ITC", "setting": "pH 7.0, 25 °C, middle domain", "measurement": "ΔG", "result": "-24.5 kcal/mol"}
{"SMILES": "COc1cc([C@@H]2c3cc4c(cc3[C@@H](O[C@@H]3O[C@@H]5CO[C@@H](C)O[C@H]5[C@H](O)[C@H]3O)[C@H]3COC(=O)[C@H]23)OCO4)cc(OC)c1O", "tested on": "MRC5 normal lung fibroblasts", "assay": "MTT", "setting": "48 h", "measurement": "TGI", "result": "> 100 µM"}
{"SMILES": "OC[C@H]1O[C@@H](O[C@@H]2[C@@H](O)[C@H](O[C@@H]3[C@@H](O)[C@H](O[C@@H]4[C@@H](O)[C@H](O[C@H]5[C@H](O)[C@@H](CO)OC(O)[C@@H]5O)O[C@H](CO)[C@H]4O)O[C@H](CO)[C@H]3O)O[C@H](CO)[C@H]2O)[C@H](O)[C@@H](O)[C@@H]1O (some centres unmarked)", "tested on": "Bacteroides thetaiotaomicron", "assay": "binding, ITC", "setting": "pH 7.0, 25 °C, distal domain", "measurement": "ΔG", "result": "-26.1 kcal/mol"}
{"SMILES": "CC(C)C[C@H](NC(=O)OCc1ccccc1)C(=O)N[C@H](C=O)C[C@@H]1CCCNC1=O", "tested on": "SARS-CoV-2", "assay": "viral replication, RT-qPCR viral load", "system": "Vero", "setting": "48 h", "measurement": "EC90", "result": "3.7 ± 0.8 µM"}
{"note": "A few entries again:"}
{"SMILES": "COc1ccccc1CNC(=O)c1cc(S(=O)(=O)N2CCC(C)CC2)c(C)[nH]1", "tested on": "rep nsp14", "assay": "inhibitor", "measurement": "IC50", "result": "> 6.25 µM"}
{"SMILES": "OC[C@H]1O[C@@H](O[C@@H]2[C@@H](O)[C@H](O[C@@H]3[C@@H](O)[C@H](O[C@H]4[C@H](O)[C@@H](CO)OC(O)[C@@H]4O)O[C@H](CO)[C@H]3O)O[C@H](CO)[C@H]2O)[C@H](O)[C@@H](O)[C@@H]1O (some centres unmarked)", "tested on": "Bacteroides thetaiotaomicron", "assay": "binding, ITC", "setting": "pH 7.0, 25 °C, distal domain", "measurement": "ΔG", "result": "-25 kcal/mol"}
{"SMILES": "COC(=O)N(C)c1c(N)nc(-c2nn(Cc3ccccc3F)c3ncccc23)nc1N", "tested on": "THP-1", "assay": "pyroptotic LDH release", "setting": "2 µM, 40 min, with: LPS then nigericin", "measurement": "inhibition", "result": "25.7%"}
